Measured values collected from several papers.
Protocols differ between the studies behind these lines. Values joined by “and” are separate records of one study, mostly repeats; a detail may differ. pEC50: −log10 of the molar value.
HTR7: 5-hydroxytryptamine receptor 7 (HTR7, Homo sapiens, UniProt P34969)

Structure (SMILES) | tested on | test | system | setting | scale | endpoint | result
O=C(CN1CCO[C@@H](COc2cccnc2)C1)N1CCc2ccccc21 | HTR7 | radioligand binding | – | concentration not given, added: [3H]LSD | – | inhibition | 1%
O=c1c(-c2ccc(O[C@@H]3O[C@H](CO)[C@@H](O)[C@H](O)[C@H]3O)cc2)coc2cc(O)cc(O)c12 | ESR2 (Homo sapiens, UniProt Q92731) | array formation, agonist | GFP-ERβ PRL-HeLa | 1 h | – | pEC50 | 5.94
COc1cc(C(=O)NS(=O)(=O)c2ccccc2C)ccc1Cc1cn(C)c2ccc(NC(=O)OC3CCCC3)cc12 | Volume-regulated anion channel subunit LRRC8C, part LRRC8A IL1 chimera (LRRC8C, Homo sapiens, UniProt Q8TDW0, I133F) | ion current, inhibitor, whole-cell patch clamp | HCT LRRC8-/- cells | 30 µM, +100 mV | – | inhibition | 84.7% and 94.6% and 99.3% and 95.5% and 96%
O=C(O)c1cn(C2CC2)c2cc(N3CCNCC3)c(F)cc2c1=O | gyrA (Escherichia coli K-12, UniProt P0AES4) | enzyme activity, inhibitor, DNA supercoiling | – | 10 µM | – | inhibition | 86.9%
O=C(NO)c1ccc(CN2CCCCc3ccccc32)c(F)c1 | HTR2A (Homo sapiens, UniProt P28223) | radioligand binding, PDSP radioligand binding | – | 10 µM | – | inhibition | 4.85%
COc1ccc2c(c1)CN(CCCN1CCN(c3ccccc3OC)CC1)C2=O | HTR2C (Homo sapiens, UniProt P28335) | radioligand binding | – | concentration not given, added: [3H]mesulergine | – | inhibition | 58.5%
NC/C(=C\F)COc1cccc(Cn2c(=S)[nH]c(=O)c3[nH]cnc32)c1 | Myeloperoxidase (MPO, Homo sapiens, UniProt P05164) | enzyme activity, Amplex Red | – | 8.468e-05 µM | – | inhibition | -11.8%
CC(C)(C)NC[C@H](O)COc1nsnc1N1CCOCC1 | Nedd8-cullin1 interaction | neddylation, AlphaScreen | – | 100 µM | – | inhibition | 35.2%
Cn1cc(-c2ccc(-c3cncc(Cl)c3N3CCC4(CCNC4=O)CC3)cc2)cn1 | COLO 205 | microarray, measured: PAH | – | concentration not given, 2 h | reference: untreated cells | fold change in expression | -1.32
CC[C@@H]1[C@H](F)C(=O)N[C@@H]1COc1nccc2cc(C(N)=O)c(OC)cc12 | FER (Homo sapiens, UniProt P16591) | ATP-site probe binding, ActivX profiling | THP-1 cell lysate | 0.01 mM, Lys1 site | – | inhibition | -9.6%
CN(C(=O)n1cnc(-c2ccc[n+]([O-])c2)c1)C1CCCCC1 | AGTR2 (Homo sapiens, UniProt P50052) | – | – | 10 µM | – | inhibition | -2.1%
O=C(CN1CCO[C@H](COc2cccc(Cl)c2)C1)N1CCc2ccccc21 | HTR7 | radioligand binding | – | concentration not given, added: [3H]LSD | – | inhibition | 21.7%
Nc1ncnc2c1ncn2[C@@H]1O[C@H](COP(=O)(O)CP(=O)(O)OP(=O)(O)O)[C@@H](O)[C@H]1O | P2X purinoceptor 1 (P2RX1, Homo sapiens, UniProt P51575, K215A) | calcium influx | – | 10 µM | reference: ionomycin response | calcium influx | 100% and 90.1%

Some of these lines once more:
Structure (SMILES) | tested on | test | system | setting | scale | endpoint | result
O=C(CN1CCO[C@H](COc2cccc(Cl)c2)C1)N1CCc2ccccc21 | HTR7 | radioligand binding | – | concentration not given, added: [3H]LSD | – | inhibition | 21.7%
